# Published values from different studies.
# Compare with care: the assays were run in different laboratories. ± marks the error that the study gave.
# B1: merA 1-69 (Serratia marcescens, UniProt P08662); sequence looked up; chain MTHLKITGMTCDSCAAHVKEALEKVPGVQSAIVSYAKGAAQLALDPGTAPDALTAAVAGLGYKAMLADA
# B2: MIF4GD K10A (Homo sapiens, UniProt A9UHW6); sequence looked up; chain MGEPSREEYAIQSFDAETQQLLKTALKDPGAVDLEKVANVIVDHSLQDCVFSKEAGRMCYAIIQAESKQAGQSVFRRGLLNRLQQEYQAREQLRARSLQGWVCYVTFICNIFDYLRVNNMPMMALVNPVYDCLFRLAQPDSLSKEEEVDCLVLQLHRVGEQLEKMNGQRMDELFVLIRDGFLLPTGLSSLAQLLLLEIIEFRAAGWKTTPAAHKYYYSEVSD
# B3: CDKN1A 9-84 del46-48 (Homo sapiens, UniProt P38936); sequence looked up; chain RQNPCGSKACRRLFGPVDSEQLSRDCDALMAGCIQEAWNFDFVTETPLEGDFAWERVRGLGLPKLYLPTGPRR
# B4: Mei5/Sae3 (Saccharomyces cerevisiae); chain 1 MHNQEEWLDKDKTLVNEEENTCINHSYTKKDTNNYRVGKSGIKDLKKPTNQKEIAIKNRELTKQLTLLRQENNHLQQACKILSENKIIENRKSIEKWRTICEMELSFILNSTLIKINRMGGYKDFLEKEMEAKKRRLEYQIDNGMEDQICEIKESDDFRQLSEVEKQEWESQMNEQLKELEKKKIAELEKLNKVLHDSEGKDFGMAELCTRLKLDYSLIFPQ; chain 2 MNYLETQLNKKQKQIQEYESMNGNLIKMFEQLSKEKKNDETPKKISSTYIKELKEYNELRDAGLRLAQIIADEKQCKIKDVFEEIGYSMKD
# B5: NXF1 (Homo sapiens, UniProt Q9UBU9); sequence looked up; chain MADEGKSYSEHDDERVNFPQRKKKGRGPFRWKYGEGNRRSGRGGSGIRSSRLEEDDGDVAMSDAQDGPRVRYNPYTTRPNRRGDTWHDRDRIHVTVRRDRAPPERGGAGTSQDGTSKNWFKITIPYGRKYDKAWLLSMIQSKCSVPFTPIEFHYENTRAQFFVEDASTASALKAVNYKILDRENRRISIIINSSAPPHTILNELKPEQVEQLKLIMSKRYDGSQQALDLKGLRSDPDLVAQNIDVVLNRRSCMAATLRIIEENIPELLSLNLSNNRLYRLDDMSSIVQKAPNLKILNLSGNELKSERELDKIKGLKLEELWLDGNSLCDTFRDQSTYISAIRERFPKLLRLDGHELPPPIAFDVEAPTTLPPCKGSYFGTENLKSLVLHFLQQYYAIYDSGDRQGLLDAYHDGACCSLSIPFIPQNPARSSLAEYFKDSRNVKKLKDPTLRFRLLKHTRLNVVAFLNELPKTQHDVNSFVVDISAQTSTLLCFSVNGVFKEVDGKSRDSLRAFTRTFIAVPASNSGLCIVNDELFVRNASSEEIQRAFAMPAPTPSSSPVPTLSPEQQEMLQAFSTQSGMNLEWSQKCLQDNNWDYTRSAQAFTHLKAKGEIPEVAFMK
# B6: RANBP2 2631-2695 (Homo sapiens, UniProt P49792); chain DVLIVYELTPTAEQKALATKLKLPPTFFCYKNRPDYVSEEEEDDEDFETAVKKLNGKLYLDGSEK
# B7: CRYBB1 99-252 (Homo sapiens, UniProt P53674); sequence looked up; chain GPWVAFEQSNFRGEMFILEKGEYPRWNTWSSSYRSDRLMSFRPIKMDAQEHKISLFEGANFKGNTIEIQGDDAPSLWVYGFSDRVGSVKVSSGTWVGYQYPGYRGYQYLLEPGDFRHWNEWGAFQPQMQSLRRLRDKQWHLEGSFPVLATEPPK
# B8: SIRT1 del7-83 (Homo sapiens, UniProt Q96EB6); sequence looked up; chain MADEAAAAAGGEQEAQATAAAGEGDNGPGLQGPSREPPLADNLYDEDDDDEGEEEEEAAAAAIGYRDNLLFGDEIITNGFHSCESDEEDRASHASSSDWTPRPRIGPYTFVQQHLMIGTDPRTILKDLLPETIPPPELDDMTLWQIVINILSEPPKRKKRKDINTIEDAVKLLQECKKIIVLTGAGVSVSCGIPDFRSRDGIYARLAVDFPDLPDPQAMFDIEYFRKDPRPFFKFAKEIYPGQFQPSLCHKFIALSDKEGKLLRNYTQNIDTLEQVAGIQRIIQCHGSFATASCLICKYKVDCEAVRGDIFNQVVPRCPRCPADEPLAIMKPEIVFFGENLPEQFHRAMKYDKDEVDLLIVIGSSLKVRPVALIPSSIPHEVPQILINREPLPHLHFDVELLGDCDVIINELCHRLGGEYAKLCCNPVKLSEITEKPPRTQKELAYLSELPPTPLHVSEDSSSPERTSPPDSSVIVTLLDQAAKSNDDLDVSESKGCMEEKPQEVQTSRNVESIAEQMENPDLKNVGSSTGEKNERTSVAGTVRKCWPNRVAKEQISRRLDGNQYLFLPPNRYIFHGAEVYSDSEDDVLSSSSCGSNSDSGTCQSPSLEEPMEDESEIEEFYNGLEDEPDVPERAGGAGFGTDGDDQEAINEAISVKQEVTDMNYPSNKS
# B9: UGT1A9 (Homo sapiens, UniProt O60656); chain GKLLVVPMDGSHWFTMRSVVEKLILRGHEVVVVMPEVSWQLGRSLNCTVKTYSTSYTLEDLDREFKAFAHAQWKAQVRSIYSLLMGSYNDIFDLFFSNCRSLFKDKKLVEYLKESSFDAVFLDPFDNCGLIVAKYFSLPSVVFARGILCHYLEEGAQCPAPLSYVPRILLGFSDAMTFKERVRNHIMHLEEHLLCHRFFKNALEIASEILQTPVTEYDLYSHTSIWLLRTDFVLDYPKPVMPNMIFIGGINCHQGKPLPMEFEAYINASGEHGIVVFSLGSMVSEIPEKKAMAIADALGKIPQTVLWRYTGTRPSNLANNTILVKWLPQNDLLGHPMTRAFITHAGSHGVYESICNGVPMVMMPLFGDQMDNAKRMETKGAGVTLNVLEMTSEDLENALKAVINDKSYKENIMRLSSLHKDRPVEPLDLAVFWVEFVMRHKGAPHLRPAAHDLTWYQYHSLDVIGFLLAVVLTVAFITFKCCAYGYRKCLGKKGRVKKAHKSKTH
# B10: BicD F684I (Drosophila melanogaster, UniProt P16568); chain MSSASNNGPSADQSVQDLQMEVERLTRELDQVSSASAQSAQYGLSLLEEKSALQQKCEELETLYDNTRHELDITQEALTKFQTSQKVTNKTGIEQEDALLNESAARETSLNLQIFDLENELKQLRHELERVRNERDRMLQENSDFGRDKSDSEADRLRLKSELKDLKFRETRMLSEYSELEEENISLQKQVSSLRSSQVEFEGAKHEIRRLTEEVELLNQQVDELANLKKIAEKQMEEALETLQGEREAKYALKKELDGHLNRESMYHISNLAYSIRSNMEDNASNNSDGEEENLALKRLEADLSTELKSPDGTKCDLFSEIHLNELKKLEKQLESMESEKTHLTANLREAQTSLDKSQNELQNFMSRLALLAAHVDALVQLKKQIDVKEQGKEGGQKKDELEQQLRALISQYANWFTLSAKEIDGLKTDIAELQKGLNYTDATTTLRNEVTNLKNKLLATEQKSLDLQSDVQTLTHISQNAGQSLGSARSTLVALSDDLAQLYHLVCTVNGETPTRVLLDHKTDDMSFENDSLTAIQSQFKSDVFIAKPQIVEDLQGLADSVEIKKYVDTVSDQIKYLKTAVEHTIDMNKHKIRSEGGDALEKVNTEEMEELQEQIVKLKSLLSVKREQIGTLRNVLKSNKQTAEVALTNLKSKYENEKIIVSDTMSKLRNELRLLKEDAATISSLRAMFAARCEEYVTQVDDLNRQLEAAEEEKKTLNQLLRLAVQQKLALTQRLEEMEMDREMRHVRRPMPAQRGTSGKSSFSTRPSSRNPASSNANPF
Molecule,tested on,assay,system,conditions,scale,measurement,value
"RCVRLHESCLGQQVPCCDPCATCYCRFFNAFCYCRKLGTAMNPCSRT (AGRP 86-132 (Homo sapiens, UniProt O00253); sequence looked up)","MC4R D189Q (Homo sapiens, UniProt P32245)","cAMP, inverse agonist, AlphaScreen",HEK293,apparent,,inverse agonist EC50,17 nM
terlipressin,"AVPR1A (Homo sapiens, UniProt P37288)",intracellular calcium,,,"relative to: maximal activity of AVP, higher = greater efficacy",intrinsic activity,41%
"PROS1 (Homo sapiens, UniProt P07225)","TFPI (Homo sapiens, UniProt P10646-1)","FXa inhibition, enhancer",,"EC50, without FV-short, together with: FXa",,enhancement of FXa inhibition,42 nM
CALM1 fragment (Homo sapiens),"ADCY8 1191-1214, N-terminal Cys, Cy5 label (Homo sapiens, UniProt P40145)",fluorescence polarisation,,"2 h, pH 7.4, KCl 100 mM, together with: CaCl2 50 µM",,pEC50,7.27
B1 (merA 1-69),"MerB 1-212, Hg(II) bound Cys96/Cys159 (Serratia marcescens, UniProt P77072)",stopped-flow fluorescence,,,,koff,144 s⁻¹
KPPRPG (PTK2 residues 706-711 (Homo sapiens)),"PIK3R1 (Homo sapiens, UniProt P27986)",lipid kinase activity,"peptide, immunopurified enzyme",0.1-100 µM,"relative to: no peptide, higher = more activity",PtdIns 3-kinase activity,2.5 fold
B2 (MIF4GD K10A),"SLBP, phosphorylated, multiple sites (Homo sapiens, UniProt Q14493)",SPR,,"pH 7.4, 25 °C, NaCl 150 mM",,koff,0.00117 s⁻¹
B3 (CDKN1A 9-84 del46-48),CDK6/CCND1,"Cdk6/cyclin D1 kinase activity, inhibitor",,,"relative to: wild-type p21-KID, higher = weaker inhibition",relative IC50,> 40 fold
RCOR1 (UniProt Q9UKL0),"histone H4/SUMO3 2-92 C47S, K12 isopeptide to SUMO-3","H3K4me2 demethylation, Western blot",mononucleosomes,,"relative to: non-sumoylated mononucleosomes, higher = faster demethylation",relative demethylation rate,2 fold
LIYWAST,,,"peptide, human polyclonal IgM RF MCC","concentration not given, 5 µg/mL mAb II-481 coated, together with: RF at 50% max binding concentration",,inhibition,8%
TPP1 fragment del NOB (human),"TERT (Homo sapiens, UniProt O14746)",direct primer extension,super-telomerase extract,together with: POT1,"relative to: TPP1-N WT, higher = lower processivity",telomerase processivity decrease,38%
B4 (Mei5/Sae3),"DMC1 (Saccharomyces cerevisiae, UniProt P25453)",smFRET,,,"relative to: Dmc1 alone, higher = faster dissociation",apparent Dmc1 dissociation rate,2 fold
B5 (NXF1),"RBM15B (Homo sapiens, UniProt Q8NDT2)","reporter expression, coactivator",293T,in cells,higher = more expression,p24gag expression,2 fold
"CALM3 (Homo sapiens, UniProt P0DP25)","SCN5A peptide truncated IG peptide (Homo sapiens, UniProt Q14524)",whole-cell patch clamp,tsA201,together with: Ca2+,,fast recovery time constant,5.8 ms
"EIWIAQELRXIGDXFNAYYA (BIM BH3 stapled peptide 145-164; N-terminal FITC-βAla, hydrocarbon staple S5 positions 10/14, C-terminal amide)",MCL-1 ΔNΔC (Homo sapiens),fluorescence polarisation,peptide,"20 min, together with: FITC-BIM SAHBA2 50 nM",,EC75,200 nM
AAEDWCKKGDT,,,"peptide, human polyclonal IgM RF ABR","concentration not given, 5 µg/mL mAb II-481 coated, together with: RF at 50% max binding concentration",,inhibition,0%
CGA/LHB (Equus caballus),LHCGR D590Y (eel),"cAMP response, agonist, HTRF",CHO-K1,"30 min, room temperature",,EC50,0.0311 µg/mL
B6 (RANBP2 2631-2695),RANGAP1/SUMO1/UBE2I RanGAP1 419-578 (Homo sapiens),SENP1 deconjugation protection,,,"relative to: RanGAP1-SUMO2 protection, higher = more protection",protease protection,47 fold
B7 (CRYBB1 99-252),"CRYBA1, Alexa Fluor 488 label (Homo sapiens, UniProt P05813)",FRET,,"pH 7.5, 37 °C, 100 mM NaCl",,subunit exchange rate,0.0111 ± 0.0022 min⁻¹
B8 (SIRT1 del7-83),"TDG (Homo sapiens, UniProt Q13569)",TDG glycosylase activity,,"2 nM, together with: caC/G-DNA","relative to: acetylated TDG, higher = greater enhancement",enhancement of activity,2.5 fold
B9 (UGT1A9),O=c1cc(-c2ccccc2O)oc2cc(O)cc(O)c12,steady-state kinetics,,"pH 7.4, 37 °C",,Vmax/Km,3750 µL/min/mg
SERPINC1 R45E/R46E/K114E/R129E (Homo sapiens),coagulation factor Xa (UniProt P00742),steady-state kinetics,,"room temperature, together with: heparin",,k2,6100 M⁻¹ s⁻¹
"FGF2 (Homo sapiens, UniProt P09038)","FGFR3 isoform IIIc (unknown, UniProt Q61851)","cell proliferation, MTT",BaF3-FGFR3c,"20 nM, 48 h, together with: heparin 4.9 µg/mL","relative to: FGF 1 with heparin, higher = more proliferation",cell proliferation,94%
"CAND1, FlAsH label (UniProt Q86VP6)","CUL2/RBX1, AMCA label on C-terminal tag (Homo sapiens)",FRET or BRET,,"100 nM, neddylated, together with: VBC 200 nM; neddylation mix",,dissociation half-life,4 min
clr4 F256A (Schizosaccharomyces pombe),"H3C1 fragment, K14 ubiquitin isopeptide","H3K9 methylation, MTase-Glo",,,"relative to: wild-type Clr4, lower = less activity",relative HMTase activity,60%
B10 (BicD F684I),DYNC1H1/DYNC1I2/DYNC1LI2/DYNLT1/DYNLRB1/DYNLL1 (Homo sapiens),single-molecule TIRF,,,,speed,0.42 µm/s

# A few entries again:
Molecule,tested on,assay,system,conditions,scale,measurement,value
"CALM3 (Homo sapiens, UniProt P0DP25)","SCN5A peptide truncated IG peptide (Homo sapiens, UniProt Q14524)",whole-cell patch clamp,tsA201,together with: Ca2+,,fast recovery time constant,5.8 ms
"EIWIAQELRXIGDXFNAYYA (BIM BH3 stapled peptide 145-164; N-terminal FITC-βAla, hydrocarbon staple S5 positions 10/14, C-terminal amide)",MCL-1 ΔNΔC (Homo sapiens),fluorescence polarisation,peptide,"20 min, together with: FITC-BIM SAHBA2 50 nM",,EC75,200 nM
AAEDWCKKGDT,,,"peptide, human polyclonal IgM RF ABR","concentration not given, 5 µg/mL mAb II-481 coated, together with: RF at 50% max binding concentration",,inhibition,0%
CGA/LHB (Equus caballus),LHCGR D590Y (eel),"cAMP response, agonist, HTRF",CHO-K1,"30 min, room temperature",,EC50,0.0311 µg/mL
